# Experimental data pooled from the literature.
# Compare with care: the assays were run in different laboratories.
# Organism: Staphylococcus aureus
Structure (SMILES),test,test system,conditions,how to read,quantity,value
CCCC[C@H](NC(=O)[C@@H](N)CCCN)C(=O)N[C@@H](CC1CCCCC1)C(=O)N[C@H](C(=O)N[C@H](Cc1ccccc1)C(=O)N[C@@H](Cc1cn(Cc2ccccc2)cn1)C(N)=O)[C@@H](C)CC,,"ATCC 33591, methicillin-resistant",,,IC50,> 20 µg/mL
C=C1CN(C(=N)N)CC2Nc3c(F)cc(Br)cc3C12CCNS(=O)(=O)c1ccc(Cl)cc1.O=C(O)C(F)(F)F (centres unmarked),,MRSA ATCC BAA-44,with: cefazolin,,minimum resensitizing concentration,2 µg/mL
CCCCCCCCCCCC(=O)Oc1c(C)c(OC)c2c(/C=C/c3ccccc3)c(CCCCCCCCCC)c(=O)oc2c1C,"microbial killing, broth dilution",ATCC25923,,,MBC,> 5000 µg/mL
C=CC(=O)NCCCCCCOCc1cn(CCCCCCNC(=O)C=C)n[n+]1C,"growth, turbidity OD600",,24 h,,IC50,> 100 µM
CC[C@H](C)[C@H](NC(=O)[C@H](CC1CCCCC1)NC(=O)[C@H](Cc1ccccc1)NC(=O)[C@@H](N)CCCN)C(=O)N[C@H](Cc1ccccc1)C(=O)N[C@@H](Cc1cn(Cc2ccccc2)cn1)C(N)=O,,"ATCC 33591, methicillin-resistant",,,IC50,> 20 µg/mL
O=C(O)c1ccccc(=O)c1O,"microbial growth, broth dilution",ATCC29213,,,MIC80,19.8 µM
CC(CCCOC(=O)CCC[N+](C)(C)C)C1CCC2C3CCC4CC(OC(=O)CCC[N+](C)(C)C)CCC4(C)C3CCC12C (centres unmarked),"microbial growth, disc diffusion",ATCC29213,"31.2 µg/disc, 24 h",,inhibition zone,12 mm
CC[C@H](C)[C@H](NC(=O)[C@H](CC1CCCCC1)NC(=O)[C@@H](NC(=O)[C@@H](N)CCCN)c1ccccc1)C(=O)N[C@H](Cc1ccccc1)C(=O)N[C@@H](Cc1cn(Cc2ccccc2)cn1)C(N)=O,bacterial growth,ATCC 29213,,,IC50,> 20 µg/mL
CC(=O)N[C@@H](CCCCN)C(=O)N1CCC[C@H]1C(=O)N[C@H](C(=O)N[C@@H](Cc1ccccc1)C(=O)N[C@@H](CCC(N)=O)C(=O)N[C@@H](Cc1ccccc1)C(=O)N[C@@H](CC(C)C)C(=O)N[C@@H](Cc1ccccc1)C(=O)N[C@@H](Cc1c[nH]cn1)C(=O)N[C@@H](CCC(=O)O)C(N)=O)C(C)C,flow cytometry,"USA300, hydrogel","concentration not given, 4 h, pH 7.4, 37 °C",,PI-permeable cells,0.32%
CC[C@H](C)[C@H](NC(=O)[C@H](CCCN)NC(=O)[C@H](CC(N)=O)NC(=O)[C@H](Cc1c[nH]c2ccccc12)NC(=O)[C@H](Cc1ccccc1)NC(=O)[C@H](CCCN)NC(=O)[C@H](CCCCNC(=N)N)NC(=O)[C@H](CC(C)C)NC(=O)[C@H](Cc1c[nH]c2ccccc12)NC(=O)[C@H](CCCN)NC(=O)[C@H](CCCCNC(=N)N)NC(=O)[C@H](CC(C)C)NC(=O)CNC(C)=O)C(=O)N[C@@H](CCCN)C(=O)N[C@@H](CCCCNC(=N)N)C(N)=O,,,"concentration not given, with: MgCl2 1 mM",relative to: no added salt,MIC fold change,1 fold
CC(C)C1=CC2=CCC3C(C)(C(=O)OCCC[N+](C)(C)C)CCCC3(C)C2CC1 (centres unmarked),"microbial growth, disc diffusion",ATCC29213,"62.5 µg/disc, 24 h",,inhibition zone,17 mm
C=CS(=O)(=O)NCCCCOCc1cn(CCCCNS(=O)(=O)C=C)nn1,"growth, turbidity OD600",,24 h,,IC50,> 100 µM
CC(CCCOC(=O)CCC[N+](C)(C)C)C1CCC2C3CCC4CC(OC(=O)CCC[N+](C)(C)C)CCC4(C)C3CC(OC(=O)CCC[N+](C)(C)C)C12C (centres unmarked),"microbial growth, disc diffusion",ATCC29213,"62.5 µg/disc, 24 h",,inhibition zone,21 mm
COc1c(C)c(O)c(C(=O)C=Cc2ccccc2)c(OC)c1C,"microbial killing, broth dilution",ATCC25923,,,MBC,> 5000 µg/mL
N=C(N)NCCC[C@@H]1NC(=O)[C@H](CCCNC(=N)N)NC(=O)[C@@H](CCCNC(=N)N)NC(=O)[C@@H](CCCNC(=N)N)NC(=O)[C@@H](C(c2ccccc2)c2ccccc2)NC(=O)[C@H](Cc2c[nH]c3ccccc23)NC(=O)[C@@H](C(c2ccccc2)c2ccccc2)NC1=O,,MRSA ATCC BAA-1556,MIC,,time to complete killing,3 to 4 h
CC(CCCOC(=O)CCC[N+](C)(C)C)C1CCC2C3C(OC(=O)CCC[N+](C)(C)C)CC4CC(OC(=O)CCC[N+](C)(C)C)CCC4(C)C3CC(OC(=O)CCC[N+](C)(C)C)C12C (centres unmarked),"microbial growth, disc diffusion",ATCC29213,"125 µg/disc, 24 h",,inhibition zone,12 mm
COc1ccc2cc3[n+](cc2c1OC)CCc1cc2c(cc1-3)OCO2.[Cl][Fe-]([Cl])([Cl])[Cl],,,,,MBC/MIC ratio,2
C=CS(=O)(=O)NCCCCCCOCc1cn(CCCCCCNS(=O)(=O)C=C)n[n+]1C,"growth, turbidity OD600",,24 h,,IC50,> 100 µM
COc1cc(Cc2cnc(N)nc2N)cc(OC)c1OC.O=c1[nH]cc(F)c(=O)[nH]1,broth microdilution,,48 h,,MBC,4 µg/mL
C=CCOc1c(C)c(OC)c(C(=O)/C=C/c2ccccc2)c(OCC=C)c1C,"microbial killing, broth dilution",ATCC25923,,,MBC,> 5000 µg/mL
CC[C@H](C)[C@H](NC(=O)[C@H](CC1CCCCC1)NC(=O)[C@@H]1CCCN1C(=O)[C@@H](N)CCCN)C(=O)N[C@H](Cc1ccccc1)C(=O)N[C@@H](Cc1cn(Cc2ccccc2)cn1)C(N)=O,bacterial growth,ATCC 29213,,,IC50,> 20 µg/mL
CCCCCC(=O)Oc1c(C)c(OC)c2c(c1C)OC(=O)[C@@H](CCCC)[C@]2(O)/C=C/c1ccccc1 (relative stereo),"microbial killing, broth dilution",ATCC25923,,,MBC,> 5000 µg/mL
C=CC(=O)NCCCCCCCCOCc1cn(CCCCCCCCNC(=O)C=C)nn1,"growth, turbidity OD600",,24 h,,IC50,> 100 µM
CC(C)c1ccc2c(c1)CCC1C(C)(CN(CC(O)C[N+](C)(C)C)CC(O)C[N+](C)(C)C)CCCC21C (centres unmarked),"microbial growth, disc diffusion",ATCC29213,"125 µg/disc, 24 h",,inhibition zone,16 mm
C[n+]1nn(CCCCCCCCN2C(=O)C=CC2=O)cc1COCCCCCCCCN1C(=O)C=CC1=O,"growth, turbidity OD600",,24 h,,IC50,> 100 µM
O=C(Oc1cccccc1=O)c1ccc(Cl)cc1,"microbial growth, broth dilution",ATCC29213,,,MIC80,13.2 µM
CC1C=CC=CC(C)C2C=CC3CC(C)(O)C(Cl)C(C)C3C2C(=O)C(Cl)(Cl)C(=O)C(C)C(=O)O1 (centres unmarked),,MSSA and MRSA clinical isolates,180 isolates,,highest MIC,0.2 µg/mL
C=C(C)C(=O)NCCCCCCCCOCc1cn(CCCCCCCCNC(=O)C(=C)C)nn1,"growth, turbidity OD600",,24 h,,IC50,> 100 µM
CC(NC(=O)c1ccccc1)C(CCCCCCCCCCCCCCC(=O)CCCCCCCC(OC(=O)c1ccccc1)C(C)NC(=O)c1ccccc1)OC(=O)c1ccccc1 (centres unmarked),resazurin,ATCC 12600,50 µM,,growth inhibition,-15%

# Repeated from above:
Structure (SMILES),test,test system,conditions,how to read,quantity,value
O=C(Oc1cccccc1=O)c1ccc(Cl)cc1,"microbial growth, broth dilution",ATCC29213,,,MIC80,13.2 µM
CC(NC(=O)c1ccccc1)C(CCCCCCCCCCCCCCC(=O)CCCCCCCC(OC(=O)c1ccccc1)C(C)NC(=O)c1ccccc1)OC(=O)c1ccccc1 (centres unmarked),resazurin,ATCC 12600,50 µM,,growth inhibition,-15%
C=CS(=O)(=O)NCCCCOCc1cn(CCCCNS(=O)(=O)C=C)nn1,"growth, turbidity OD600",,24 h,,IC50,> 100 µM
O=C(O)c1ccccc(=O)c1O,"microbial growth, broth dilution",ATCC29213,,,MIC80,19.8 µM
